# Experimental data of several laboratories.
# Each line is one published result; not all experiments were run side by side.
# BRD4 BD1: Bromodomain-containing protein 4, BD1 (BRD4, Homo sapiens, UniProt O60885)
# BRD4 BD2: Bromodomain-containing protein 4, BD2 (BRD4, Homo sapiens, UniProt O60885)
Structure (SMILES),target,read-out,mode,method,setting,with,IC50 [µM]
CCOc1ccc(C(C)=O)cc1NC(=O)c1cc(NC(C)=O)cc(NC(=O)c2ccco2)c1,BRD4 BD1,,inhibitor,,,,> 200
COc1cc(N2CCN(C)CC2)ccc1Nc1ncc2c(n1)N(C)c1ccccc1C(=O)N2,BRD4 BD1,,,,,,> 10
CCN(CC)CCCC(C)Nc1ccnc2cc(Cl)ccc12 (centres unmarked),BRD4 BD1,binding,,AlphaScreen,,tetra-acetylated H4 peptide,> 10
Cc1cc2c(cc1N1C(=O)c3cccc4c(N5CCN(CC6CC6)CC5)ccc(c34)C1=O)n(C)c(=O)n2C,BRD4 BD2,binding,inhibitor,HTRF,"BD2 domain, H4 acetyl peptide",,> 10.8
CN(C)C(=O)c1cc2cnc(Nc3cc(C(=O)O)cc(-c4cccc5c(=O)cc(N6CCOCC6)oc45)c3)nc2n1C1CCCC1,BRD4 BD2,,inhibitor,,,,> 10
COc1cc(N2CCN(C)CC2)ccc1Nc1ncc2c(n1)N(C)c1ccccc1C(=O)N2C,BRD4 BD1,,,,,,0.888
CN(C)C(=O)c1cc2cnc(Nc3cc(C(F)(F)F)c(-c4cccc5c(=O)cc(N6CCOCC6)oc45)cn3)nc2n1C1CCCC1,BRD4 BD2,,inhibitor,,,,> 10
Cc1[nH]c2ccccc2c1-c1csc(-c2c[nH]c3ccccc23)n1,BRD4 BD2,protein-DNA interaction,,AlphaScreen,DNA-binding domain,,3.39

# Some of these lines once more:
Structure (SMILES),target,read-out,mode,method,setting,with,IC50 [µM]
Cc1[nH]c2ccccc2c1-c1csc(-c2c[nH]c3ccccc23)n1,BRD4 BD2,protein-DNA interaction,,AlphaScreen,DNA-binding domain,,3.39
